Measured values collected from several papers.
Each numbered part is a random draw from the data of one study; scales do not carry over between parts. Positions count from the first letter of the parent shown.

Sample 1
Target: RNA binding protein fox-1 homolog 2, RRM domain, GST-SBP tag (RBFOX2, Homo sapiens, UniProt O43251-10, residues 100-194)
Method: RNA Bind-n-Seq
Form: RNA
Sample: in vitro
Concentration: 365 nM
Setting: natural RNA segment, single round, ends assumed
Baseline: no-protein control
Reading: higher = stronger binding
Endpoint: RBNS enrichment (R)
Residues (chain): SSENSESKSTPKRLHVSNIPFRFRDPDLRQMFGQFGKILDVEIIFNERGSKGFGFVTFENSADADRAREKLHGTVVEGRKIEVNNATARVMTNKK
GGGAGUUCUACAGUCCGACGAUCCCCUCGUGAUCCCAAACGACUCACUCCUUAAAUUCACACUUUGCCACUUAACUCCAGUGUGGAUGACAGAGCGAGACCCUGCCUCAAAAAAAAAAAAAAAAAAAGAAAGCUGGAAUUCUCGGGUGCCAA: 0.469
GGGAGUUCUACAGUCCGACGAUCAAAAGGGAACCCAAGCAGUAGAGAGCGAUAUUGGAGUCUUUUGUUCAUUCAAAUCUUGGAUUUUUUUUUUUCCCUAAGAGAUUCUCUUUUUAGGGGGAAUGGGAAACGGAUGGAAUUCUCGGGUGCCAA: 0.452
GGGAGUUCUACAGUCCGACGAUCCAGGAGCUCUCUGGAGCCCAUCUAGGAAGCUAGAGUGUGUGGCCCGCCAGGAGCUCAGGAAGGAUACAGCCACUGUCGCAGGGGAAAGUGUUUGCUUCCCGUGGAGCCAAUGGAAUUCUCGGGUGCCAA: 0.443
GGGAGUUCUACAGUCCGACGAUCAAAUAAACAAAGGAUUAUGCUUAAUAGUUUUCAUUGAAGUUUAUUAUAACUUAUUUCAGAUGUGUCCUUUUAUUGUACAUUUUGUAUAAUAAAUGUUGAAGUUGAAAACUUGGAAUUCUCGGGUGCCAA: 0.568
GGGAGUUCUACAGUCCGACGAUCAGACUGACAGCCAGCCUGGCUCAUUCUCAUUAUUGGCUAGUUAGCUUUCUUUAUCAACCUGCUCACUCACAAAUGUGUGCCCUCAGCCAGAGAGUAAGAAAGCCCAAAUCUGGAAUUCUCGGGUGCCAA: 0.201
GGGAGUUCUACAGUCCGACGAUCUGUAGACCCCAUCUCAGUGUCUUCAGAAGGACUGUGAACAGAGGCAGCGUCUGCCAUGAAACCAGUUCACCGCUCCUCUCCAUGAAUUGACCUUUUCAAUUUUUUUAAAGUGGAAUUCUCGGGUGCCAA: 0.464
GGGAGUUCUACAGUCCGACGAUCUAAGAGGACUCUCCCUGACCAAGGACUAAAAAGCCUUUGGGGAUGCUGGUAUGAUGGACCAGGCAGGCCAGGCAGACGGGAGGAGGGCUGGGAACAAGAGCAGCCCACUCUGGAAUUCUCGGGUGCCAA: 0.421
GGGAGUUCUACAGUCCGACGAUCAGGCCUGGGCCAUUGUCCUCAUCCUGUAGUCAGGGAUCAGGCAUGGGUUUUGAUUUCAGUUUUCCCCCUUUCUCUGCCCUGGGGGCUGGGCUCCUUAUUGCUGCUUAGGCUGGAAUUCUCGGGUGCCAA: 0.556
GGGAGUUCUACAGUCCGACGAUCUUAAAGGCUGAGUUAUUUUUGAAUGUCAUGUUUAUGUCAUAGACGUAGUUUUCGCAUCCUUGAAUUAAACUGCCUUAACUCCUUUUGUGGUAUAAGCAAAACUACAUGGAUGGAAUUCUCGGGUGCCAA: 0.405
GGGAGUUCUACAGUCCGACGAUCACGGUCCAGGGCAAACUGAAAUGUACGCCUGAAUUUUGUAAACAGAAGUAUUAAAUGUCUCUUUCUAAGCCCCUUGCCUCGUCUUGGUGCAGGGGUGGGCCUGCCACCCAUGGAAUUCUCGGGUGCCAA: 0.657
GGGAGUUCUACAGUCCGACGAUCCUGCGGCUGUGGCAGCCUCCAUCUCCAGCAAGUCUCCUGGCCUCUCCUCCUCAUCCUCUUCAUCCUCAUCCUCCUCCUCCUCCACUUGCAGCGAGACGGCAGCACAGACCUGGAAUUCUCGGGUGCCAA: 1.22
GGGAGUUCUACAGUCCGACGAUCGAUCAUACCUAAGAGGUUAGGAAAUGGUGCCAUUCCCACCUUAGAGUGCUACAUAGGUGCUUUGGGCGUAUGUAACAUUAGUGUCCUUCCUUGAAGCCACAAGCUAGUUUUGGAAUUCUCGGGUGCCAA: 0.325

Sample 2
Target: ABI1, truncated, D143A, DHFR fusion (Arabidopsis thaliana)
Method: DHFR PCA, deep sequencing
Sample: yeast
Setting: methotrexate growth selection, single substitutions
Added: (+)-ABA 710 µM
Baseline: wild-type fitted maximum
Reading: higher = stronger binding
Endpoint: relative binding score
Starting sequence: PYL1, truncated, DHFR fusion (Arabidopsis thaliana); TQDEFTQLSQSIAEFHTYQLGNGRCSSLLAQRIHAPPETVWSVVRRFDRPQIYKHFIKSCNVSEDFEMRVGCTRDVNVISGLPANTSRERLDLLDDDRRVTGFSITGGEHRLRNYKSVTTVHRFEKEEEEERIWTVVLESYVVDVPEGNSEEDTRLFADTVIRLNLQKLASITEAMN; partner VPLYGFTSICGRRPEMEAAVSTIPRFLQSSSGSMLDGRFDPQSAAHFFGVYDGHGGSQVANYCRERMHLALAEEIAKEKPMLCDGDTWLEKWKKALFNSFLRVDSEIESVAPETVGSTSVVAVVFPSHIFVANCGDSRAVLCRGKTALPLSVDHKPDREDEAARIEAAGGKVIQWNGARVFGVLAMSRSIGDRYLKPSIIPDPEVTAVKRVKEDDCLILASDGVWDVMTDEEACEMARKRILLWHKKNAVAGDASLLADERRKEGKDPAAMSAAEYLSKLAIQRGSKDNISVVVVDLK
E151L: 98.7%
N77M: 103%
D153S: 74.4%
R69F: 89.8%
L20K: 99.7%
N149R: 50.1%
K58T: 94.7%
G23Y: 93.7%
A30V: 101%
T160R: 92.6%
L91V: 44.3%
I105A: 78.8%
F157I: 88.4%
D3R: 96.8%
V78R: 10.5%
E14F: 77.8%
T120V: 13.6%
E129T: 106%
D144C: 84.6%

Sample 3
Target: Ras GTPase-activating protein-binding protein 1, full length (G3BP1, Homo sapiens, UniProt Q13283)
UniProt Q13283, sequence (whole entry, looked up): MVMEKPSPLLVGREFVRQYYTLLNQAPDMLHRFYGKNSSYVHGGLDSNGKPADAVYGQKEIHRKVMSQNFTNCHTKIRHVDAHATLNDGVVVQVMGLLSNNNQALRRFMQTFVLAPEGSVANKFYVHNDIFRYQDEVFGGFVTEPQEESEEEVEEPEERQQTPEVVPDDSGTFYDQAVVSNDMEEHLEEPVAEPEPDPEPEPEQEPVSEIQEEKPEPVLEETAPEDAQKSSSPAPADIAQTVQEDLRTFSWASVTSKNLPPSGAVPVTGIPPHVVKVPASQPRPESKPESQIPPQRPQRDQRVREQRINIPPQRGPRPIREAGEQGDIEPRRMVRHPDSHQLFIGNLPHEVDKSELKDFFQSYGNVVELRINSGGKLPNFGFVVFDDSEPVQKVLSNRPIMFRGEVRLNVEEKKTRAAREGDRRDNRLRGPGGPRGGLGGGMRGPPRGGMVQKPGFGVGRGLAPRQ
Method: RNA Bind-n-Seq
Form: RNA
Sample: in vitro
Concentration: 200 nM
Setting: whole 134-nt RNA, ends assumed
Added: 150 mM KCl
Baseline: input library
Reading: higher = stronger binding
Endpoint: log2 enrichment
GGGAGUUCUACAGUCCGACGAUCUGGGAGGUGGAUUUUGUUUAUUUUUUUAGCUCUUUUCCAGGGGUGGGAAUUUUUUUUUAAUAUGUGUCAUGAAUAAAGUUGUUUUUGAAAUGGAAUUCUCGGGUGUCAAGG: 0.212
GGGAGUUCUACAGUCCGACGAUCCCUCAAGUCCUGUGCUACACAUCGUAUGUACCGAAUCGGGUUGGUUGGUUGGGAAAGUAUUAUGUUACGCCGUUCGGAUCUGCACUUCCAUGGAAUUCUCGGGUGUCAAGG: -0.28
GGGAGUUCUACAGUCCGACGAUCAAGUCCUGUGCUACACAUCGUAUGUACCGAAUCGGGGCCCGGGGCCCGGGGCCCGGGAAAGUAUUAUGUUACGCCGUUCGGAUCUGCACUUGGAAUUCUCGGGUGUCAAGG: -1.27
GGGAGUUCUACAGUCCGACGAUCAAGUCCUGUGCUACACAUCGUAUGUACCGAAUCGGGGUGGGGAAAGGGGAAAGGGGAAAGUAUUAUGUUACGCCGUUCGGAUCUGCACUUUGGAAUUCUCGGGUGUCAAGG: 0.921
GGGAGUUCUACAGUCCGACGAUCCAAGUCCUGUGCUACACAUCGUAUGUACCGAAUCGGAAAAAGGAGGAAAAAAAGGAAAGUAUUAUGUUACGCCGUUCGGAUCUGCACUUCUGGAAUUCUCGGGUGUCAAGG: -0.742
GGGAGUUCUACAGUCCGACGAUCUGGGAGGUGGAUUUUGUUUAUUUUUUUAGCUCAUUUCCAGGGGUGGGAAUUUUUUUUUAAUAUGUGUCAUGAAUAAAGUUGUUCUUGAAAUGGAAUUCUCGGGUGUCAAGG: 0.326
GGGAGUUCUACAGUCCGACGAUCAGUCCUGUGCUACACAUCGUAUGUACCGAAUCGGUUUUUGGAAAAAGGAAAAAAAGGAAAGUAUUAUGUUACGCCGUUCGGAUCUGCACUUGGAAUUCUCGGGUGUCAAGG: -1.28
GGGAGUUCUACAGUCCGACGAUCCUCAAGUCCUGUGCUACACAUCGUAUGUACCGAAUCGGGUUUGGGUGGGAGGGAAAGUAUUAUGUUACGCCGUUCGGAUCUGCACUUCCAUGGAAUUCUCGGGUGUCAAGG: 1.32
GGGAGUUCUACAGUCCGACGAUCUAACUUUAGAGGAGGAUCUGAUGGAUAUGGCAGUGGACGUGGAUUUGGGGAUGGCUAUAAUGGGUAUGGAGGAGGACCCGGAGGUGGCAAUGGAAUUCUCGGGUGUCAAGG: 0.0616
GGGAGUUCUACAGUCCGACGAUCGUCCUGUGCUACACAUCGUAUGUACCGAAUCGGGGUUUUUGGGUUUUUGGUUUUUGGGGAAAGUAUUAUGUUACGCCGUUCGGAUCUGCAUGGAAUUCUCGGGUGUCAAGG: -0.502

Sample 4
Target: Interferon regulatory factor 5, full length, phosphomimetic (IRF5, Homo sapiens, UniProt Q13568-2, residues 1-514, K96S/S451D/S453D/S456D/S462D)
Method: protein-binding microarray
Form: double-stranded DNA, one strand shown
Sample: in vitro
Concentration: 250 nM
Setting: 60-bp whole probe
Added: salmon DNA 0.4 mg/ml
Baseline: random background probes
Reading: higher = stronger binding
Endpoint: log fluorescence
Constant ends, left off below: GCCTAGCAC … GTCTTGATTCGCTTGACGCTGCTG
GACGGACTGGGTCTCGGGCCGTGCTAG: -0.899 z-score
GACGGTACCGGGTATCGGGACGTGCTA: 0.469 z-score
TTAGCTTTCGGGTTTCGATTAGTGCTA: 10.5 z-score
TTAGATTTCGGATTTCGATTAGTGCTA: 5.91 z-score
TTGGGACTGGACTATCGGTTAGTGCTA: 5.47 z-score
TCAGTTTTACAATTTGCACTGTGCTAG: 0.74 z-score
GACGATATTGGGTTTCGAGACGTGCTA: 3.06 z-score
CTCTGGGGGGTGGGATGAAGGTGCTAG: 2.83 z-score
GTAGGACTGGGGTTTCGGTTAGTGCTA: 6.66 z-score
TTAGATATTGGGACTGGATTAGTGCTA: 0.303 z-score
CACTGACACCGATTTCATCACGTGCTA: 0.375 z-score
TTACGTCTCCTTCTCCTTTAGTGCTAG: 0.637 z-score
TCATTTTCCTACATCAGACTGTGCTAG: 1.07 z-score
TTAGGACTGGGGTATCGCTTAGTGCTA: 0.0128 z-score
TTAGACATCGGGACTGGATTAGTGCTA: 0.0515 z-score
CTGCTGCAGGCAGCACGCTGGTGCTAG: -0.703 z-score
GACGGCTTCGGACTGGGGACGTGCTAG: -0.365 z-score
TCAATTATATATTTATGACTGTGCTAG: 0.399 z-score
GACGGTTTCCTACTACTGACGTGCTAG: 0.489 z-score
GACGGACTGAGGACTGGGGACGTGCTA: -0.417 z-score
TTAGATCTTAGTTTCGATTAGTGCTAG: 10.1 z-score
GACAATTTCAGTTCCGAGACGTGCTAG: 2.58 z-score
TTAGATCTCAGACGGGATTAGTGCTAG: -0.0321 z-score
